Experimental data of several laboratories.
Target: Death-associated protein kinase 1 (DAPK1, Homo sapiens, UniProt P53355)

C=CC(=O)N1Cc2nc(-c3cc(-c4cc(Cl)cnc4Cl)c(F)cc3F)n(-c3ccncn3)c2C1 — inhibition (cell-free assay, inhibitor; 1 µM): 4.2%
COc1ccc(NC(=O)Nc2ccc3c(c2)C(=O)N(C(C)CO)CC(C)C(CN(C)Cc2ccc4c(c2)OCO4)O3)cc1 (stereo not shown) — remaining activity (kinase activity, KinaseProfiler; 0.03 µM, species human; relative to: control): 107%
NC(=O)C[C@H]1CCc2sc3ncnc(O[C@H]4CC[C@H](N5CCOCC5)CC4)c3c21 — inhibition (enzyme activity, inhibitor; 10 µM): -5%
Cc1ccc(-c2c(/C=C(\C#N)C(=O)NC(C)C)n(CCCO)c3ncnc(N)c23)cc1 — remaining binding (cell-free assay, competition with immobilised ligand; 1 µM): 100%
C=CC(=O)Nc1cccc(-c2cnc3[nH]cc(C(=O)NC(C)(C)C)c3n2)c1 — inhibition (enzyme activity, inhibitor; 0.1 µM): 4%
CNC(=O)C1CCN(c2cc(C)c(F)cc2NC(=O)c2ccc(-c3cc(O)ccc3C)c(C)c2)CC1 — remaining binding (binding, competition with immobilised ligand; 1 µM): 72%
Cc1cccc(O[C@H]2CCC[C@@H](C(C)CNCc3ccncc3)C2)c1 (relative stereo) — inhibition (enzyme activity, inhibitor; 1 µM): 5%
COc1cc(-n2cc3cc(F)cc(C(N)=O)c3n2)cc(Cl)c1C1CC(O)(CCO)Cc2ccccc21 (stereo not shown) — inhibition (enzyme activity, inhibitor; 10 µM): 2.09%
CC(C)=CC1OC(C)(C)C2C=C3C(=O)C(Cl)=CC(O)C3C3C(O)C4OC4C(=O)C132 (stereo not shown) — remaining binding (cell-free assay, competition with immobilised ligand; 10 µM): 88%
CNC1C[S+]2CC[S+]3CC[S+](C1)[Ru-4]321([N]=C=S)[n]2c3ccc(OC)cc3c3c4c(c5cc(F)c[n+]1c5c32)C(=O)NC4=O (stereo not shown) — remaining binding (KinomeScan; 0.1 µM; relative to: untreated): 3.1%
COc1ccc(O)cc1-c1c[nH]c2ncc(-c3cncc(C(=O)N(C)C)c3)cc12 — inhibition (binding, competition with immobilised ligand; 0.2 µM): -5.34%
CN1CC[C@@H](COc2cnc(C#N)cc2-c2ccn3nc(NC(=O)C4CC4)cc3c2)C1 — inhibition (enzyme activity, inhibitor; 1 µM): 5%
C[C@H]1CN(C(=O)c2cn(-c3ccnc(N)n3)c3cc(C#CC4(O)CCCCC4)ccc23)CCN1 — inhibition (enzyme activity, inhibitor; 1 µM): 4%
Nc1ncc2c(n1)-c1c([nH]c3ccc(C4=CCOCC4)cc13)CCC2 — remaining binding (binding, competition with immobilised ligand; 1 µM): 95%
COc1cc(Nc2nc(C)cc(-c3cnn4nc(OC)ccc34)n2)cc(C(F)(F)F)c1 — remaining activity (inhibitor; 1 µM; relative to: control): 88%
COc1c(Cl)cccc1Nc1c(-c2ccncc2C#C[C@@]2(C)CCCN2C(=O)/C=C/CN(C)C)[nH]c2c1C(=O)NCC2 — remaining binding (binding, competition with immobilised ligand; 3 µM): 76%

A few entries again:
COc1cc(Nc2nc(C)cc(-c3cnn4nc(OC)ccc34)n2)cc(C(F)(F)F)c1 — remaining activity (inhibitor; 1 µM; relative to: control): 88%
CC(C)=CC1OC(C)(C)C2C=C3C(=O)C(Cl)=CC(O)C3C3C(O)C4OC4C(=O)C132 (stereo not shown) — remaining binding (cell-free assay, competition with immobilised ligand; 10 µM): 88%
